Results pooled from the literature.
Parts stem from different laboratories: compare values within a part only.
Chain of UniProt Q12866 (whole entry, looked up): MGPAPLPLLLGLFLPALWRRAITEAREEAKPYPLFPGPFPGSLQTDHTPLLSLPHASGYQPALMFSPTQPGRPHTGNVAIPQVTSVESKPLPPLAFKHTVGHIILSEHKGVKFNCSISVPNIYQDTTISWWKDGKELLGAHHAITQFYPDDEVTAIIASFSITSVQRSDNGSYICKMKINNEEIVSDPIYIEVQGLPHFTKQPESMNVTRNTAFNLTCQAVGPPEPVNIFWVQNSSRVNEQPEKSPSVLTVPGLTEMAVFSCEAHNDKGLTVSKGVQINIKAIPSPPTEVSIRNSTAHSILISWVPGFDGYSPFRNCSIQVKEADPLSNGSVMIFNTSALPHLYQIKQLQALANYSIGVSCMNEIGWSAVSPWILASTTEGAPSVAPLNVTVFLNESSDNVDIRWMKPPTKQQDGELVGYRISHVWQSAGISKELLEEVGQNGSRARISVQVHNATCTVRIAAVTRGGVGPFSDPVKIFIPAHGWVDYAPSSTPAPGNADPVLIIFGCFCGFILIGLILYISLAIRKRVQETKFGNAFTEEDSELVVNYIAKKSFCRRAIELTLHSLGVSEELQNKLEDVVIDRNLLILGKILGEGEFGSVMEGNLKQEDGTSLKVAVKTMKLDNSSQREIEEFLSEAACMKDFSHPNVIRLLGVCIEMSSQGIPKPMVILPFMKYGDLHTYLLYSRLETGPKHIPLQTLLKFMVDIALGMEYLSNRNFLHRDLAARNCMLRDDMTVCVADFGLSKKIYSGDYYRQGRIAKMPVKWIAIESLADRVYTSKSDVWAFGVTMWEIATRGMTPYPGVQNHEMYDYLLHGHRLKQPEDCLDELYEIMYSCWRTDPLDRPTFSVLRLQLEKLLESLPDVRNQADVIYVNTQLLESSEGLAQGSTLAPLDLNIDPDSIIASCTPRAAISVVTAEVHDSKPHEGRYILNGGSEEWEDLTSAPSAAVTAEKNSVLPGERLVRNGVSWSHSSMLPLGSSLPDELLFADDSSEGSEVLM
Chain of UniProt Q5VT25 (whole entry, looked up): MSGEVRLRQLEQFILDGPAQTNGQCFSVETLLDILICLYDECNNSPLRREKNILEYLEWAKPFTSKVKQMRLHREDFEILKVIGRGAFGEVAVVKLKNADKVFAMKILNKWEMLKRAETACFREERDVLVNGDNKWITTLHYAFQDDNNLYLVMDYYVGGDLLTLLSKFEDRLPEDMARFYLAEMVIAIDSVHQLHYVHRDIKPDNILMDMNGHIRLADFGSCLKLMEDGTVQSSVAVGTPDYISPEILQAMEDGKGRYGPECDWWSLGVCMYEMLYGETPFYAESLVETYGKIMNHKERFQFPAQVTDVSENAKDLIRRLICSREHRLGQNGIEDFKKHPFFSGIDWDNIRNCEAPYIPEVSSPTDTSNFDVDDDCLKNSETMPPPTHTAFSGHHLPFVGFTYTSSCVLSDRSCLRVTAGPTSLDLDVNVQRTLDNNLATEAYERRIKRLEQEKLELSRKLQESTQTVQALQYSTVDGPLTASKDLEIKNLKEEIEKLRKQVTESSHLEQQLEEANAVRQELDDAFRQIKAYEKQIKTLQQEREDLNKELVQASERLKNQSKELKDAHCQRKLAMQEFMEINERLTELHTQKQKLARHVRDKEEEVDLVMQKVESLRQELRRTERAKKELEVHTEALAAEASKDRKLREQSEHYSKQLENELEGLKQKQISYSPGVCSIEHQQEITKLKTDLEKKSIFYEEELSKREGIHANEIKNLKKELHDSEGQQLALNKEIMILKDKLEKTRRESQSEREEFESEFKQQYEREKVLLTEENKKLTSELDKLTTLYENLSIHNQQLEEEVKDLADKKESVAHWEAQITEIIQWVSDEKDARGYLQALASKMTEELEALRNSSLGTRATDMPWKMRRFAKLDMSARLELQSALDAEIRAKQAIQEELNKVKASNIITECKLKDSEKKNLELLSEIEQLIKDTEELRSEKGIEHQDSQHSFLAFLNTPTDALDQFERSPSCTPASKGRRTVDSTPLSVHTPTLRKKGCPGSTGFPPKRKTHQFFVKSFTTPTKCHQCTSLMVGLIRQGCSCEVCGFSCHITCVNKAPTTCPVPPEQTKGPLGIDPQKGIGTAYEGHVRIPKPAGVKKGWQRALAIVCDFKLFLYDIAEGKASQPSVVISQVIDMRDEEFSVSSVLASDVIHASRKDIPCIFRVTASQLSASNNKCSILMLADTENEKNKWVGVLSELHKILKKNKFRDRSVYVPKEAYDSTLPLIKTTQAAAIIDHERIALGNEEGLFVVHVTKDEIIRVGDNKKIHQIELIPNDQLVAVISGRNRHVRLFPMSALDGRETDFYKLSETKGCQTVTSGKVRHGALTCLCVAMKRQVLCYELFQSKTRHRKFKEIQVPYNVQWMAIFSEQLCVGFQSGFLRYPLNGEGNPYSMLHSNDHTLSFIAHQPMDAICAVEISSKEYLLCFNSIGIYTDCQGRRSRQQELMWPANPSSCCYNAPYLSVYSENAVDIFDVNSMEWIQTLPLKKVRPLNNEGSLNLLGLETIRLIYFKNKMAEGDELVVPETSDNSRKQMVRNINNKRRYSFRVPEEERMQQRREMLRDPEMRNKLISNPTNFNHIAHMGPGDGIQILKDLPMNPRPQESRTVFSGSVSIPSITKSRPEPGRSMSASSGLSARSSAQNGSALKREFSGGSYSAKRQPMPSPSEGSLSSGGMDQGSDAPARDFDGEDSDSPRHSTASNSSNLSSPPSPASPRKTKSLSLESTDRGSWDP
Chain of UniProt Q02763 (whole entry, looked up): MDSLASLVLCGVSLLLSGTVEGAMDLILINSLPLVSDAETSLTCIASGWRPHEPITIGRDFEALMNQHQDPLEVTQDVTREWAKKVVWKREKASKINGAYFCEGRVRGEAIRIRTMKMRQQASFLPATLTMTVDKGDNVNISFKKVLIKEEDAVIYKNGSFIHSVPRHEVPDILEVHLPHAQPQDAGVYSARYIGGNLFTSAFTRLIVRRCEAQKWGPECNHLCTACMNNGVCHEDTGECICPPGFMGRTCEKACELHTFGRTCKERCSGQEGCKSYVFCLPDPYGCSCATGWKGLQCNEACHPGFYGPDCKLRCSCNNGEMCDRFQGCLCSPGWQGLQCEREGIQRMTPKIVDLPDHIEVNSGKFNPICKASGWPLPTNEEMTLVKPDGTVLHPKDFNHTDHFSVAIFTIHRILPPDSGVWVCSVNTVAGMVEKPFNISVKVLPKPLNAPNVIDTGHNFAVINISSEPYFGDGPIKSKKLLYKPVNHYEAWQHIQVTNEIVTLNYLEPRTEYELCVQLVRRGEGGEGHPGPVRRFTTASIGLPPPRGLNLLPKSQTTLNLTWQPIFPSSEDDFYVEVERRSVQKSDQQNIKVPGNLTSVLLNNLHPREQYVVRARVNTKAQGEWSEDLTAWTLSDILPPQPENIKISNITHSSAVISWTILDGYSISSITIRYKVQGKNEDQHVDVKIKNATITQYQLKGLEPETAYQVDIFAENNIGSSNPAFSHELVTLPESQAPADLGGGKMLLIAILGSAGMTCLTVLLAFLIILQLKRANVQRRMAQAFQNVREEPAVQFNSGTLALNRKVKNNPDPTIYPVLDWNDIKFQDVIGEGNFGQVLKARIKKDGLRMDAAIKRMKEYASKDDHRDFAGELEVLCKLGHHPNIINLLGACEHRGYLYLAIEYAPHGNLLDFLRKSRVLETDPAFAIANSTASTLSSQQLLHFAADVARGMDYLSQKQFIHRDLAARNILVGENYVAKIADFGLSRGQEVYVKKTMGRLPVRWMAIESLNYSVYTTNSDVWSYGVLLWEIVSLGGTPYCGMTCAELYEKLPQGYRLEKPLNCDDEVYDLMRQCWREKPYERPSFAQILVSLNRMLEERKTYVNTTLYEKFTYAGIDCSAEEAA
Chain of UniProt P27361 (whole entry, looked up): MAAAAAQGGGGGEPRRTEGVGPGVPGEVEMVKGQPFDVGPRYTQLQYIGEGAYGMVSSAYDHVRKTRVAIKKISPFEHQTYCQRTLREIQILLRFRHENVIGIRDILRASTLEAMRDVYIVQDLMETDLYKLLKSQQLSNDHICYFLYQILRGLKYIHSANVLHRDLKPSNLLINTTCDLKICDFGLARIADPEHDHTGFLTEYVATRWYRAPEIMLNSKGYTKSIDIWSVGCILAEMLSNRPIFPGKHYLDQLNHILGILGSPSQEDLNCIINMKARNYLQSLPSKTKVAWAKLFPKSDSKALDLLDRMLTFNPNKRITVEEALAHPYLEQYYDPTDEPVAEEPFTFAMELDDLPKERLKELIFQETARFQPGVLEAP

Study 1
SMILES: Nc1[nH]nc2nnc(-c3c(-c4ccccc4)nn4ccccc34)cc12
Observed: enzyme activity
Action: inhibitor
Tested at: 0.5 µM
Relative to: control
target	remaining activity [%]
JAK3 (Homo sapiens, UniProt P52333)	105
CSNK1G3 (Homo sapiens, UniProt Q9Y6M4)	104
ARAF (Homo sapiens, UniProt P10398)	98.4
FGFR3 (Homo sapiens, UniProt P22607)	102
GRK7 (Homo sapiens, UniProt Q8WTQ7)	96.7
ABL2 (Homo sapiens, UniProt P42684)	57.5
FGFR1 (Homo sapiens, UniProt P11362)	94.7
MAP3K5 (Homo sapiens, UniProt Q99683)	99.3
MERTK (Homo sapiens, UniProt Q12866)	76.4
ACVR1B (Homo sapiens, UniProt P36896)	107
NEK1 (Homo sapiens, UniProt Q96PY6)	109
MAPK3 (Homo sapiens, UniProt P27361)	65.8
MAP2K2 (Homo sapiens, UniProt P36507)	99.4
TEK (Homo sapiens, UniProt Q02763)	96.6

Study 2
Target: Calcium/calmodulin-dependent protein kinase type II subunit alpha (CAMK2A, Homo sapiens, UniProt Q9UQM7)
Chain of UniProt Q9UQM7 (whole entry, looked up): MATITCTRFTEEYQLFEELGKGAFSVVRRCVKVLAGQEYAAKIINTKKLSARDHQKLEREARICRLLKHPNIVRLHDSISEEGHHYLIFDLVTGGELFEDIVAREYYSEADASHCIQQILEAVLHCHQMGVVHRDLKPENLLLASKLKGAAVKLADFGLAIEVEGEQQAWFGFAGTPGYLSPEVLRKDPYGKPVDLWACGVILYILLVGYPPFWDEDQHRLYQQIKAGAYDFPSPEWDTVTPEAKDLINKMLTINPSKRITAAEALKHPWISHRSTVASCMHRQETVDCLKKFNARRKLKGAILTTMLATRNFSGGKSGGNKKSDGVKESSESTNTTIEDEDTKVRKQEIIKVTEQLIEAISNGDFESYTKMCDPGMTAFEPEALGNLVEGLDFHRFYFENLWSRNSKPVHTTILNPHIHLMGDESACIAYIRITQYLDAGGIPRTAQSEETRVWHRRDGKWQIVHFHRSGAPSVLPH
Observed: enzyme activity
Action: inhibitor
Tested at: 10 µM
SMILES	inhibition
C[C@H](CCC(=O)NCC(=O)O)[C@H]1CC[C@H]2[C@@H]3C(O)C[C@@H]4C[C@H](O)CC[C@]4(C)[C@H]3CC[C@]12C (stereo partly drawn)	-9%
CC(=O)NO	1%
NC(=O)c1cnccn1	-9%
CCC(=O)O[C@@H](O[P@](=O)(CCCCc1ccccc1)CC(=O)N1C[C@H](C2CCCCC2)C[C@H]1C(=O)O)C(C)C	-17%
CC(=O)N[C@@H](CCCCN)C(=O)O	25%
COc1ccc(-c2oc3c(CC=C(C)C)c(O[C@@H]4O[C@H](CO)[C@@H](O)[C@H](O)[C@H]4O)cc(O)c3c(=O)c2O[C@@H]2O[C@@H](C)[C@H](O)[C@@H](O)[C@H]2O[C@@H]2O[C@@H](C)[C@H](O)[C@@H](O)[C@H]2O)cc1	-26%
COc1cc(COC(=O)CCCCCCC(C)C)ccc1O	18%
CC(C)[C@H](NC(=O)CN)C(=O)O	-7%
NC(=O)c1cccnc1	-5%

Study 3
Cell line: HaCaT
Tested at: 100 µM
Time: 18 h
Structure (SMILES)	viability
CCc1cc2c(cc1N1CCC(N3CCOCC3)CC1)C(C)(C)c1[nH]c3cc(C#N)ccc3c1C2=O	30.2%
C[C@H]1[C@H](C)CC[C@]2(C(=O)O)CC[C@]3(C)C(=CC[C@@H]4[C@@]5(C)C[C@@H](O)[C@H](O)[C@@](C)(CO)[C@@H]5CC[C@]43C)[C@H]12	17.7%
C#C[C@]1(O)CC[C@H]2[C@@H]3CCC4=C(CCC(=O)C4)[C@H]3CC[C@@]21C	100%
O=C(O)c1ccccc1Nc1cccc(C(F)(F)F)c1	93.7%
CC1Cc2ccccc2N1NC(=O)c1ccc(Cl)c(S(N)(=O)=O)c1 (stereo not drawn)	100%
Cn1c([N+](=O)[O-])cnc1COC(N)=O	120%
CC(=O)NS(=O)(=O)c1ccc(NC(=O)c2ccccc2C(=O)O)cc1	88.7%
CCC(CC)[C@H](NC(C)=O)[C@@H]1[C@H](O)[C@@H](C(=O)O)C[C@H]1NC(=N)N	112%
CC(C(=O)O)c1ccc2c(c1)[nH]c1ccc(Cl)cc12 (stereo not drawn)	97.5%
COc1cc2c(N3CCN(C(=O)Nc4ccc(OC(C)C)cc4)CC3)ncnc2cc1OCCCN1CCCCC1	28.8%

Study 4
Compound: CC(C)CC(=O)N1CCc2nc(-c3ccc(Br)cc3)nc(N(C)Cc3ccccc3)c2C1
Observed: cell-free assay
Method: competition with immobilised ligand
Tested at: 0.1 µM
target	remaining binding [%]
Cyclin-dependent kinase 4, with cyclin D1 (CDK4, Homo sapiens, UniProt P11802)	85
ACVR2A (Homo sapiens, UniProt P27037)	97
PIM3 (Homo sapiens, UniProt Q86V86)	100
RET (Homo sapiens, UniProt P07949, V804L)	100
MAPK13 (Homo sapiens, UniProt O15264)	100
BUB1 (Homo sapiens, UniProt O43683)	78
CDC42BPA (Homo sapiens, UniProt Q5VT25)	100
RAF1 (Homo sapiens, UniProt P04049)	100
PIK3CA (Homo sapiens, UniProt P42336, H1047Y)	76
EGFR (Homo sapiens, UniProt P00533, L858R/T790M)	100
SIK3 (Homo sapiens, UniProt Q9Y2K2)	100
Ribosomal protein S6 kinase alpha-3, N-terminal kinase domain (RPS6KA3, Homo sapiens, UniProt P51812)	94
TGFBR1 (Homo sapiens, UniProt P36897)	100
Tyrosine-protein kinase ABL1, non-phosphorylated (ABL1, Homo sapiens, UniProt P00519)	58
WEE2 (Homo sapiens, UniProt P0C1S8)	100
KIT (Homo sapiens, UniProt P10721, V559D)	100
ALK (Homo sapiens, UniProt Q9UM73, C1156Y)	100
MAP3K1 (Homo sapiens, UniProt Q13233)	100
PLK3 (Homo sapiens, UniProt Q9H4B4)	100
TLK1 (Homo sapiens, UniProt Q9UKI8)	100
PRKG2 (Homo sapiens, UniProt Q13237)	100

For quick reference, copied from above (study 4):
target	remaining binding [%]
CDC42BPA (Homo sapiens, UniProt Q5VT25)	100
RAF1 (Homo sapiens, UniProt P04049)	100
PIK3CA (Homo sapiens, UniProt P42336, H1047Y)	76
EGFR (Homo sapiens, UniProt P00533, L858R/T790M)	100
SIK3 (Homo sapiens, UniProt Q9Y2K2)	100
Ribosomal protein S6 kinase alpha-3, N-terminal kinase domain (RPS6KA3, Homo sapiens, UniProt P51812)	94
TGFBR1 (Homo sapiens, UniProt P36897)	100
